Measurements pooled from the literature.
Each numbered part is a random draw from the data of one study; scales do not carry over between parts. Changes are numbered by the printed parent chain.

Series 1 — target: inorganic phosphate, free oxyanion; technique: microfluidic competitive inhibition; medium: in vitro, cell-free expressed; concentration: not given; direction: lower = stronger binding; quantity: phosphate dissociation constant
Notes: derived from inhibition constants, unchanged parent 615000 nM
Parent: PafA, mature enzyme, eGFP fusion (Elizabethkingia meningoseptica, UniProt Q9KJX5); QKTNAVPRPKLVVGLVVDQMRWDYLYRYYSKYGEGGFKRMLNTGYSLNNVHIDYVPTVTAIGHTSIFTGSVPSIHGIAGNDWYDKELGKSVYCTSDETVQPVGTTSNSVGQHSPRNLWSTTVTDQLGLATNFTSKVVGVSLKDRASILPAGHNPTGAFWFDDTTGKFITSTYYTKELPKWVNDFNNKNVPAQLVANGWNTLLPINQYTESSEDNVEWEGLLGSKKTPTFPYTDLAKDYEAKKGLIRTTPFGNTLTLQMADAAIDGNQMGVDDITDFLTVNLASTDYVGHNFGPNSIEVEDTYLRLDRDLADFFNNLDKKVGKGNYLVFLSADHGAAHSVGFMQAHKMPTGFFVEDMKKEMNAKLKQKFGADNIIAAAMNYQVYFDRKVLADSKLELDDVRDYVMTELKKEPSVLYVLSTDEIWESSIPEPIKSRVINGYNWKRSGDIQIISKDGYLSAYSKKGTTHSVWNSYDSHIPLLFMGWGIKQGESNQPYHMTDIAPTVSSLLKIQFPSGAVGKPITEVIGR
M20G: 380 µM
R526G: 594 µM
K319V: 591 µM
G323V: 627 µM
G514V: 240 µM
S46G: 473 µM
Y380V: 788 µM
L479G: 598 µM
K236V: 647 µM
T497V: 376 µM
F160G: 545 µM
T105G: 555 µM
E406G: 535 µM
N107G: 786 µM
A129V: 452 µM
G463V: 198 µM
T174G: 603 µM
M347V: 676 µM
A129G: 621 µM
Y28V: 598 µM
Q125G: 337 µM
K241V: 618 µM
I485V: 675 µM
A500V: 628 µM
A150G: 583 µM

Series 2 — technique: RNAcompete; molecule type: RNA; medium: in vitro; concentration: 20 nM; notes: 7-mer, probes averaged, single round; relative to: mean of 7-mers; direction: higher = stronger binding; quantity: 7-mer Z-score
Target: PABPC1L2, full length, GST fusion (mouse, UniProt A0ABA7IW68)
Residues (chain): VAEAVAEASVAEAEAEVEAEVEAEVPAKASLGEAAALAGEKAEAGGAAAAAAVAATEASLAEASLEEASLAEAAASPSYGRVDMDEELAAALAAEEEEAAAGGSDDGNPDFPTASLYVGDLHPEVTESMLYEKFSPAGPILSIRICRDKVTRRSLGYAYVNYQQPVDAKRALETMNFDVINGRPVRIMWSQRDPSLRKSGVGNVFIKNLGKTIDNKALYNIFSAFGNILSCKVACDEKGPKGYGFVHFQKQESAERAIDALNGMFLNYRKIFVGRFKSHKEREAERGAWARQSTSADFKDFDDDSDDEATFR
UUCAUUA: -0.199
UCUACUG: -0.403
GAGACUU: -0.0283
GUUAAAG: 0.269
GAAGUUC: -0.184
AUGCUUC: -0.335
AAAGAGG: 2.22
UAACGGA: -0.0772

Series 3 — technique: aptamer microarray, sandwich; molecule type: DNA with 2'F-ANA; medium: in vitro; concentration: 200 nM; together with: Cy3 exosite-II aptamer, 400 nM; direction: higher = stronger binding; quantity: mean fluorescence intensity; sequence: GGTTGGTGTGGTTGG
Target: Prothrombin, mature alpha-thrombin (F2, Homo sapiens, UniProt P00734)
Notes: whole 15-mer aptamer, many near background
2'F-ANA at 3 4 9 12 13 14 15: 349 a.u.
2'F-ANA at 1 2 3 9 10 12 14 15: 60.5 a.u.
2'F-ANA at 1 3 4 5 12 14 15: 54.9 a.u.
2'F-ANA at 2 6 7 10 11 15: 90.4 a.u.
2'F-ANA at 2 6 7 8 9 10 11 12: 138 a.u.
2'F-ANA at 2 6 7 9 11 12 14: 181 a.u.
2'F-ANA at 1 2 3 8 14: 84.6 a.u.
2'F-ANA at 4 5 6 7 9 11 14 15: 44.8 a.u.

Series 4 — target: CCNB3, cyclin fold, Cln2 fusion (human); technique: yeast growth competition, sequencing; medium: yeast; notes: strong parent motif; relative to: not given; direction: higher = stronger binding; quantity: normalised enrichment score; parent: viral docking peptide; TSVRRALFTGGSD
F8T: -0.176
F8S: 0.24
T9F: 2.13
S2K: 1.77
R4K: 0.603
A6G: 1.35
R4F: 0.835
G11W: 1.03
L7K: 0.258
A6D: 0.826
G11Y: 1.63
G11C: 2.01
V3T: 0.464
T9R: 1.35
A6E: 0.449
R4I: 0.981
R5K: 0.95
S2W: 0.89
L7V: 0.264
F8C: -0.075
T9D: 1.5
A6V: 3.63
V3A: 0.804
L7I: 0.329
R4D: -0.343

A few entries again (series 4):
T9R: 1.35
A6E: 0.449
R4I: 0.981
R5K: 0.95
S2W: 0.89
L7V: 0.264
F8C: -0.075
T9D: 1.5
A6V: 3.63
V3A: 0.804
L7I: 0.329
